Measured values from different studies.
Lines come from different studies, so protocols differ.

| SMILES | host | medium | route | dose | notes | quantity | result |
| --- | --- | --- | --- | --- | --- | --- | --- |
| COc1cnc2cccc(N3CCc4c(cc(Cn5ccnc5)cc4-c4cn(C)nc4C(F)(F)F)C3=O)c2c1 | male CD-1 mouse | plasma | intraperitoneal | 10 mg/kg | – | MRT(0-inf) | 1 h |
| O=C1CCC(N2C(=O)c3ccc(N4CCC(C(=O)N5CCC(CCN6CCC(CNC(=O)c7cccc(-c8noc(C(F)(F)F)n8)c7)(c7nc(-c8ccccc8)cs7)CC6)CC5)CC4)cc3C2=O)C(=O)N1 (stereo not drawn) | CD-1 mouse | plasma | oral | 30 mg/kg | – | MRT | 2.28 h |
| Cc1cc(NCC(=O)C(C)C)c2nc(N3CCOC[C@H]3C)cc(=O)n2c1 | C57BL/6 mouse | plasma | intraperitoneal | 10 mg/kg | single dose | MRT(0-t) | 0.88 h |
| CC[C@H](C)[C@H](NC(=O)[C@H](Cc1ccccc1)NC(=O)[C@H](CCC(=O)O)NC(=O)[C@H](CCCCN)NC(=O)[C@H](C)NC(=O)[C@H](C)NC(=O)[C@H](CCC(N)=O)NC(=O)CNC(=O)[C@H](CCC(=O)O)NC(=O)[C@H](CC(C)C)NC(=O)[C@H](Cc1ccc(O)cc1)NC(=O)[C@H](CO)NC(=O)[C@H](CO)NC(=O)[C@@H](NC(=O)[C@H](CC(=O)O)NC(=O)[C@H](CO)NC(=O)[C@@H](NC(=O)[C@H](Cc1ccccc1)NC(=O)[C@@H](NC(=O)CNC(=O)[C@H](CCC(=O)O)NC(=O)[C@H](C)NC(=O)[C@@H](N)Cc1c[nH]cn1)[C@@H](C)O)[C@@H](C)O)C(C)C)C(=O)N[C@@H](C)C(=O)N[C@@H](Cc1c[nH]c2ccccc12)C(=O)N[C@@H](CC(C)C)C(=O)N[C@H](C(=O)N[C@@H](CCCNC(=N)N)C(=O)NCC(=O)N[C@@H](CCCNC(=N)N)C(=O)NCC(=O)O)C(C)C | male CD-1 mouse | plasma | intravenous | 1 mg/kg | single dose | MRT | 0.21 h |
| C[C@@H](Nc1nc2c(cnn2C(C)(C)C)c(=O)n1Cc1cccc(F)c1)c1ccc(Cl)cc1 | C57BL/6 mouse | plasma | intravenous | 2.5 mg/kg | – | MRT(0-inf) | 11.3 h |
| C[C@@]1(c2nc(-c3ccc(F)c4cn[nH]c34)no2)CCCN(C(=O)c2ccc(F)nc2)C1 | male C57BL/6 mouse | plasma | intraperitoneal | 20 mg/kg | – | MRT(0-t) | 1.1 h |
| O=C(O)c1ccc(/C=C2\SC(=S)N(Cc3cccc(C(F)(F)F)c3)C2=O)cc1 | C57BL/6 mouse | blood | oral | 10 mg/kg | – | MRT(0-inf) | 2.4 h |
| CCOC(=O)c1nc2cc(Cl)c(Cl)cc2nc1N1CCN(C(=O)Nc2ccc(N3CCNCC3)cc2)CC1 | male mouse | plasma | oral | 10 mg/kg | – | MRT(0-inf) | 8.1 h |
| COc1ccccc1/C=C/CNCC(O)COc1ccc(Nc2ccccc2)cc1 (racemic) | mouse | plasma | intraperitoneal | 10 mg/kg | – | MRT(0-t) | 5.52 h |
| CCn1cc(-c2cc(Cn3ccnc3)cc3c2CCN([C@H](c2cc(OC)ccn2)C2CC2)C3=O)c(C(F)(F)F)n1 | male CD-1 mouse | plasma | oral | 50 mg/kg | – | MRT(0-inf) | 2 h |
| Cc1ncsc1-c1ccc(CNC(=O)[C@@H]2C[C@@H](O)CN2C(=O)[C@@H](NC(=O)COCC(C)(COCCOCCOCCNC(=O)C[C@@H]2N=C(c3ccc(Cl)cc3)c3c(sc(C)c3C)-n3c(C)nnc32)COCCOCCOCCNC(=O)C[C@@H]2N=C(c3ccc(Cl)cc3)c3c(sc(C)c3C)-n3c(C)nnc32)C(C)(C)C)cc1 | male C57BL/6 mouse | plasma | intravenous | 5 mg/kg | single dose | MRT(0-inf) | 1.92 h |
| COc1cc(OCCN2CCOCC2)cnc1-c1nc2cc(OC(F)(F)F)ccc2[nH]1 | mouse | plasma | intraperitoneal | 100 mg/kg | – | MRT | 1.51 h |

Some of these lines once more:
| SMILES | host | medium | route | dose | notes | quantity | result |
| --- | --- | --- | --- | --- | --- | --- | --- |
| C[C@@H](Nc1nc2c(cnn2C(C)(C)C)c(=O)n1Cc1cccc(F)c1)c1ccc(Cl)cc1 | C57BL/6 mouse | plasma | intravenous | 2.5 mg/kg | – | MRT(0-inf) | 11.3 h |
| CC[C@H](C)[C@H](NC(=O)[C@H](Cc1ccccc1)NC(=O)[C@H](CCC(=O)O)NC(=O)[C@H](CCCCN)NC(=O)[C@H](C)NC(=O)[C@H](C)NC(=O)[C@H](CCC(N)=O)NC(=O)CNC(=O)[C@H](CCC(=O)O)NC(=O)[C@H](CC(C)C)NC(=O)[C@H](Cc1ccc(O)cc1)NC(=O)[C@H](CO)NC(=O)[C@H](CO)NC(=O)[C@@H](NC(=O)[C@H](CC(=O)O)NC(=O)[C@H](CO)NC(=O)[C@@H](NC(=O)[C@H](Cc1ccccc1)NC(=O)[C@@H](NC(=O)CNC(=O)[C@H](CCC(=O)O)NC(=O)[C@H](C)NC(=O)[C@@H](N)Cc1c[nH]cn1)[C@@H](C)O)[C@@H](C)O)C(C)C)C(=O)N[C@@H](C)C(=O)N[C@@H](Cc1c[nH]c2ccccc12)C(=O)N[C@@H](CC(C)C)C(=O)N[C@H](C(=O)N[C@@H](CCCNC(=N)N)C(=O)NCC(=O)N[C@@H](CCCNC(=N)N)C(=O)NCC(=O)O)C(C)C | male CD-1 mouse | plasma | intravenous | 1 mg/kg | single dose | MRT | 0.21 h |
